Measurements gathered from unrelated publications.
A part holds a random share of what one study measured. Substitutions count along the parent as printed.

Series 1
Target: ABI1, truncated, D143A, DHFR fusion (Arabidopsis thaliana)
Technique: DHFR PCA, deep sequencing
Matrix: yeast
Setting: methotrexate growth selection, single substitutions
Added: (+)-ABA 0 µM
Reference: wild-type fitted maximum
Direction: higher = stronger binding
Parent: PYL1, truncated, DHFR fusion (Arabidopsis thaliana); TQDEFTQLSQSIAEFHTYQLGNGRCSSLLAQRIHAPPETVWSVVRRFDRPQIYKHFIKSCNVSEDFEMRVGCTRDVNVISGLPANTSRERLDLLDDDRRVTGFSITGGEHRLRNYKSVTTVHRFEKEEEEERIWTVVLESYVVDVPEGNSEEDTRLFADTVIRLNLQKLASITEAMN; partner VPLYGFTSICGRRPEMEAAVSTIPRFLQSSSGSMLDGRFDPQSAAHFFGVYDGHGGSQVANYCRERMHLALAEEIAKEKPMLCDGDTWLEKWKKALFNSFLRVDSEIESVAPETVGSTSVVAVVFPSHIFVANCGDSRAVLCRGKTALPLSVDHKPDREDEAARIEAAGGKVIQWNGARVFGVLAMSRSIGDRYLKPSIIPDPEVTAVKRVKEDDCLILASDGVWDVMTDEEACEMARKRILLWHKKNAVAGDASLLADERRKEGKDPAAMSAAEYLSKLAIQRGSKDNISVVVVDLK
`L138F`: “relative binding score” 5.12%.
`T160C`: “relative binding score” 1.04%.
For `N61Y`, “relative binding score” read 24.9%.
For `F47G`, “relative binding score” read -4.54%.
For `D159T`, “relative binding score” read -10.9%.
`I57L`: “relative binding score” -1.42%.
`T17F` — result for “relative binding score”: -2.36%.
Under “relative binding score”, `V136I` is recorded as 27.3%.

Series 2
Target: CCNA1, cyclin fold, Cln2 fusion (human)
Technique: yeast growth competition, sequencing
Matrix: yeast
Setting: weak parent motif
Reference: not given
Direction: higher = stronger binding
Parent: ORC1 docking peptide (human); PRARKRLELGNLG; partner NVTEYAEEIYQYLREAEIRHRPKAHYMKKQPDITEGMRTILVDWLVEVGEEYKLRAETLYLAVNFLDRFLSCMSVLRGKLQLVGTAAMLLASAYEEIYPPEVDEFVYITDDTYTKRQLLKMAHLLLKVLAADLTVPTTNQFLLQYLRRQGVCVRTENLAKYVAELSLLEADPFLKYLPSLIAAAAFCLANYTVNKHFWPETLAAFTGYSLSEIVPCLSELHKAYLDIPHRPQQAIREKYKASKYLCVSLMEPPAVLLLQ
`PRARKRLRLGNLG [E8R]`: “normalised enrichment score” -0.0483.
Under “normalised enrichment score”, `PRARKRLELGNLN [G13N]` is recorded as 0.477.
Under “normalised enrichment score”, `PRARKRLELGNLK [G13K]` is recorded as 0.337.
Under “normalised enrichment score”, `PRAQKRLELGNLG [R4Q]` is recorded as 0.189.
`PRARKRLTLGNLG [E8T]` — result for “normalised enrichment score”: 0.0721.
Under “normalised enrichment score”, `PRARKRLELRNLG [G10R]` is recorded as 0.199.
`PRARKWLELGNLG [R6W]` — result for “normalised enrichment score”: 0.0667.
Under “normalised enrichment score”, `ARARKRLELGNLG [P1A]` is recorded as 0.692.

Series 3
Target: Transcriptional repressor CTCF (CTCF, Homo sapiens, UniProt P49711, residues 1-727, full length assumed)
Sequence of UniProt P49711 (whole entry, looked up): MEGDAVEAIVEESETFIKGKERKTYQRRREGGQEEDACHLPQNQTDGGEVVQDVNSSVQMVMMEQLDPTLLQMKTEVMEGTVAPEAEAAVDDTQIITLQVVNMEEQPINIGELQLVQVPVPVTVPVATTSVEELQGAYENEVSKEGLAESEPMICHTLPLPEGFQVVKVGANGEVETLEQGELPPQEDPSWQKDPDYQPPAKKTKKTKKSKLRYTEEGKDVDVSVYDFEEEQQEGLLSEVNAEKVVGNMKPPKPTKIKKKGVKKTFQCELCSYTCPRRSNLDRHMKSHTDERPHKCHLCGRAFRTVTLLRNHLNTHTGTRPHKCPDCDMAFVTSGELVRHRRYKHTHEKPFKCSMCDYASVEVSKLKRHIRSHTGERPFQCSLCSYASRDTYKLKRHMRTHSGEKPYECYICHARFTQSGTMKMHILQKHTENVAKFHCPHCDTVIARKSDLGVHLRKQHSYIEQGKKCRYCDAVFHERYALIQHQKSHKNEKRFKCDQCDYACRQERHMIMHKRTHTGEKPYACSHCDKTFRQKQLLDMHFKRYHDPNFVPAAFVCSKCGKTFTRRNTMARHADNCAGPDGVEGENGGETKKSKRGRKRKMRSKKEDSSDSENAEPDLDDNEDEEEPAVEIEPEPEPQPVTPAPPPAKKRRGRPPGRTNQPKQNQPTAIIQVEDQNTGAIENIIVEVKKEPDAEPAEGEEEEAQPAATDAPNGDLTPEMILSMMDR
Technique: protein-binding microarray
Molecule type: double-stranded DNA, one strand shown
Matrix: in vitro
Tested at: not given
Setting: k-mer, scored over probes, only values ≥0.25
Direction: higher = stronger binding
The E-score of `ACAAAAAT` is reported as 0.293.
`ACACATAT` has an E-score of 0.267.
`ATACAATA` gave an E-score of 0.265.
For `TGCAAAAA`, the E-score was 0.268.
The E-score of `ATTATGTG` is reported as 0.285.
`CGGTAATA` gave an E-score of 0.265.
The E-score of `GCGCACTA` is reported as 0.318.
For `TCTGCGCA`, the E-score was 0.356.

Mixed results
The viability of COc1ccc(CN2CCN(C(c3ccc(F)cc3)c3ccc(F)cc3)CC2)c(OC)c1OC is reported as 34.1% (A-375; 100 µM, 36 h).
